# Experimental data pooled from the literature.
# Each line is one published result; not all experiments were run side by side. pIC50, pKd: −log10 of the molar value.
# HLA class I histocompatibility antigen, A alpha chain allele A*02:01: HLA class I histocompatibility antigen, A alpha chain, allele A*02:01 (Homo sapiens, UniProt P04439)
# HLA class I histocompatibility antigen, A alpha chain allele A*68:02: HLA class I histocompatibility antigen, A alpha chain, allele A*68:02 (Homo sapiens, UniProt P04439)
SMILES,target,assay,setting,endpoint,value
CC(C)C[C@H](NC(=O)[C@H](CCCNC(=N)N)NC(=O)[C@H](CC(C)C)NC(=O)[C@H](CC(C)C)NC(=O)[C@@H](NC(=O)[C@H](C)NC(=O)[C@H](CCC(=O)O)NC(=O)[C@H](CO)NC(=O)[C@@H]1CCCN1C(=O)[C@H](CCC(N)=O)NC(=O)[C@H](CO)NC(=O)[C@H](C)NC(=O)[C@H](CC(=O)O)NC(=O)CNC(=O)[C@@H](N)C(C)C)C(C)C)C(=O)N[C@@H](CC(=O)O)C(=O)NCC(=O)N[C@H](C(=O)N[C@H](C(=O)N[C@@H](CC(C)C)C(=O)N[C@@H](CCC(=O)O)C(=O)N[C@H](C(=O)N[C@@H](CCC(=O)O)C(=O)N[C@@H](C)C(=O)N[C@H](C(=O)N[C@@H](CO)C(=O)N[C@H](C(=O)N[C@@H](CC(C)C)C(=O)N[C@H](C(=O)N[C@H](C(=O)O)C(C)C)[C@@H](C)O)C(C)C)C(C)C)C(C)C)[C@@H](C)O)[C@@H](C)O,"HLA class I histocompatibility antigen, A alpha chain allele A*02:01","binding, competition binding","48 h, pH 7, 20 °C, with: fluorescent HBV core peptide",pIC50,< 4.30
CC(C)C[C@H](NC(=O)[C@@H](NC(=O)[C@H](CC(C)C)NC(=O)[C@@H](NC(=O)[C@@H](N)CCCNC(=N)N)[C@@H](C)O)C(C)C)C(=O)N[C@@H](CC(=O)O)C(=O)N[C@@H](C)C(=O)N[C@@H](Cc1ccc(O)cc1)C(=O)N[C@@H](CCCCN)C(=O)O,"HLA class I histocompatibility antigen, A alpha chain, allele A*30:01 (Homo sapiens, UniProt P04439)","peptide binding, competitive inhibition",,pIC50,> 6.70
CC[C@H](C)[C@H](N)C(=O)N[C@@H](C)C(=O)N[C@@H](C)C(=O)N[C@@H](CCCNC(=N)N)C(=O)N[C@@H](C)C(=O)N[C@H](C(=O)N[C@@H](CCC(=O)O)C(=O)N[C@@H](CC(C)C)C(=O)N[C@@H](CC(C)C)C(=O)O)C(C)C,"HLA class I histocompatibility antigen, A alpha chain allele A*68:02","peptide binding, AlphaScreen",,pKd,< 6.30
CC[C@H](C)[C@H](NC(=O)CNC(=O)[C@H](CCCCN)NC(=O)[C@H](CCC(=O)O)NC(=O)[C@H](CC(C)C)NC(=O)[C@@H](N)C(C)C)C(=O)N1CCC[C@H]1C(=O)N[C@H](C(=O)N[C@@H](CC(C)C)C(=O)O)[C@@H](C)O,"HLA class I histocompatibility antigen, A alpha chain allele A*02:01","binding, competitive radioligand binding","48 h, 37 °C, with: radiolabelled FLPSDYFPSV 1 nM",pIC50,> 6.70
CC(C)C[C@H](NC(=O)[C@@H](N)CCCCN)C(=O)NCC(=O)NCC(=O)NCC(=O)N[C@@H](CCC(N)=O)C(=O)N[C@@H](Cc1ccc(O)cc1)C(=O)NCC(=O)N[C@@H](CCC(=O)O)C(=O)O,"HLA class I histocompatibility antigen, A alpha chain (Homo sapiens, UniProt P04439)","peptide binding, competitive radioligand binding","room temperature, HLA-A*0301 allele, with: radiolabelled probe peptide",pIC50,5.64
CC[C@H](C)[C@H](NC(=O)[C@H](CC(=O)O)NC(=O)[C@@H](NC(=O)[C@H](CC(=O)O)NC(=O)[C@H](C)NC(=O)[C@H](CCSC)NC(=O)[C@@H](N)CCCCN)C(C)C)C(=O)N[C@@H](CO)C(=O)N[C@H](C(=O)N[C@H](C(=O)O)C(C)C)[C@@H](C)O,"HLA class I histocompatibility antigen, A alpha chain allele A*02:01",,,pIC50,> 5.30
CC(C)C[C@H](NC(=O)[C@H](CCCNC(=N)N)NC(=O)[C@H](CC(C)C)NC(=O)[C@H](CC(C)C)NC(=O)[C@@H](NC(=O)[C@H](C)NC(=O)[C@@H](N)CCC(=O)O)C(C)C)C(=O)N[C@@H](CC(=O)O)C(=O)NCC(=O)N[C@H](C(=O)N[C@H](C(=O)N[C@@H](CC(C)C)C(=O)N[C@@H](CCC(=O)O)C(=O)N[C@H](C(=O)N[C@@H](CCC(=O)O)C(=O)O)C(C)C)[C@@H](C)O)[C@@H](C)O,"HLA class I histocompatibility antigen, A alpha chain allele A*02:01","binding, competition binding","48 h, pH 7, 20 °C, with: fluorescent HBV core peptide",pIC50,< 4.30
CC(C)C[C@H](NC(=O)[C@H](CC(N)=O)NC(=O)[C@H](Cc1c[nH]c2ccccc12)NC(=O)[C@H](CCC(=O)O)NC(=O)[C@H](CCC(=O)O)NC(=O)[C@H](CC(C)C)NC(=O)[C@@H](NC(=O)[C@@H](NC(=O)[C@@H](N)CC(=O)O)[C@@H](C)O)C(C)C)C(=O)O,"HLA class I histocompatibility antigen, A alpha chain allele A*68:02","peptide binding, AlphaScreen",,pKd,< 6.30
